Assay results pooled from the literature.
Each line is one published result; not all experiments were run side by side. ± marks the error that the study gave.

SMILES	test	system	conditions	scale	endpoint	result
CC[C@H](C)[C@H](NC(=O)[C@H](Cc1ccc(O)cc1)NC(=O)[C@@H](NC(=O)[C@H](CC(N)=O)NC(=O)[C@H](C)NC(=O)[C@H](CCCNC(=N)N)NC(=O)[C@H](CCCNC(=N)N)NC(=O)[C@H](CC(N)=O)NC(=O)[C@H](CCCNC(=N)N)NC(=O)[C@H](CCCNC(=N)N)NC(=O)[C@H](C)NC(=O)[C@@H](NC(=O)[C@H](CO)NC(=O)[C@@H](NC(=O)[C@@H](NC(=O)[C@H](CS)NC(=O)[C@H](CCCCN)NC(=O)[C@@H](N)CCCNC(=N)N)C(C)C)[C@@H](C)CC)C(C)C)[C@@H](C)CC)C(=O)N[C@@H](CC(C)C)C(=O)N[C@@H](CS)C(=O)N[C@@H](CCCNC(=N)N)C(=O)O	LC-MS	PBS	0.1 mg/mL		single disulfide form	38%
O=C(c1cccnc1-c1ccncc1)N1CCC(O)(Cc2ccccc2)CC1		human, plasma	oral, 100 mg, multiple doses, once daily, healthy volunteers		Vd/F	1140 L
CCN(CC)CCNC(=O)c1c(C)[nH]c(/C=C2\C(=O)Nc3ccc(F)cc32)c1C		human, plasma	oral, 15 mg/m2, day 21		median trough plasma concentration	37.7 ng/mL
CCN1C(=O)CNc2ncc(-c3ccc(-c4nc[nH]n4)nc3C)nc21		human, plasma	oral, 40 mg once daily, multiple doses		AUC(0-24h)	2650 ng·h/mL
CC(=O)N[C@H](CSSC[C@H](N)C(=O)O)C(=O)N[C@H](C)C(=O)N[C@H](CCCNC(=N)N)C(=O)N[C@H](CCCNC(=N)N)C(=O)N[C@H](CCCNC(=N)N)C(=O)N[C@H](C)C(=O)N[C@H](CCCNC(=N)N)C(N)=O		human whole blood		reference: biotransformation over reverse	rate ratio	2.1 fold
CC[C@H](C)C(=O)O[C@H]1C[C@H](O)C=C2C=C[C@H](C)[C@H](CC[C@@H](O)C[C@@H](O)CC(=O)O)[C@H]21	mitochondrial swelling	BALB/cByJ female mouse liver mitochondria	30 min, with: succinate + rotenone	reference: CaCl2 maximal swelling	EC20	> 200 µM
Cc1cc(C)c2c(c1)[C@@H](N(Cc1cc(C(F)(F)F)cc(C(F)(F)F)c1)c1nnn(C)n1)CCCN2C[C@H]1CC[C@H](C(=O)O)CC1		human, dyslipidemic patients, plasma	oral, 100 mg daily, geometric mean, with: rosuvastatin		AUC(0-tau) at steady state	5960 ng·h/mL
C[C@]12CC[C@@H]3c4ccc(O)cc4CC[C@H]3[C@@H]1C[C@@H](O)[C@@H]2O	GC-MS	breast cancer women on NSAI, serum	vaginal, 0.03 mg daily, 0.5 h, day 28		minimum serum concentration	0 ng/mL
CS(=O)(=O)n1cc2c(n1)CN([C@H]1CO[C@H](c3cc(F)ccc3F)[C@@H](N)C1)C2		healthy Japanese men, plasma	oral, 25 mg once weekly, day 1		Ctrough	14.8 nM
CC(C)NC[C@@H](C(=O)N1CCN(c2ncnc3c2[C@H](C)C[C@H]3O)CC1)c1ccc(Cl)cc1		human, hepatic impairment Healthy (Child-Pugh), plasma	oral, 100 mg single, geometric mean		CL/F	314 L/h
[H]/N=C(/N)N[C@H]1[C@H](O)[C@@H](O)[C@H](O[C@@H]2O[C@@H](C)[C@](O)(C=O)[C@H]2O[C@@H]2O[C@@H](CO)[C@H](O)[C@@H](O)[C@@H]2NC)[C@@H](N/C(N)=N\[H])[C@@H]1O	mitochondrial swelling	BALB/cByJ female mouse liver mitochondria	30 min, with: succinate + rotenone	reference: CaCl2 maximal swelling	EC20	418 µM
CS(=O)(=O)n1cc2c(n1)CN([C@H]1CO[C@H](c3cc(F)ccc3F)[C@@H](N)C1)C2		healthy male human, plasma	oral, 25 mg, fasted, geometric mean		AUC(0-24h)	8.2 µM·h
COc1ccc(C(=O)O)cc1OS(=O)(=O)O		human, fasted baseline, cerebrospinal fluid			median concentration	18.8 nM
CO/N=C1\C[C@]2(C[C@@H]3C[C@@H](C/C=C(\C)C[C@@H](C)/C=C/C=C4\CO[C@@H]5[C@H](O)C(C)=C[C@@H](C(=O)O3)[C@]45O)O2)O[C@H](/C(C)=C/C(C)C)[C@H]1C	HPLC, non-compartmental	Corriedale lambs, parasitized, plasma	oral, 0.2 mg/kg, with: closantel 10 mg/kg oral		MRT	70.3 ± 25 h
Nc1ccc(S(=O)(=O)c2ccc(N)cc2)cc1	mitochondrial swelling	BALB/cByJ female mouse liver mitochondria	30 min, with: succinate + rotenone	reference: CaCl2 maximal swelling	EC20	> 400 µM
Cn1c(-c2ccc(C(N)=O)cc2F)nnc1C(C)(C)Oc1c(F)cc(Cl)cc1F		young non-Japanese humans, plasma	oral, 0.7 mg, day 1, single dose		mean Cmax	0.0221 ng/mL

Excerpt of the above:
SMILES	test	system	conditions	scale	endpoint	result
Nc1ccc(S(=O)(=O)c2ccc(N)cc2)cc1	mitochondrial swelling	BALB/cByJ female mouse liver mitochondria	30 min, with: succinate + rotenone	reference: CaCl2 maximal swelling	EC20	> 400 µM
Cc1cc(C)c2c(c1)[C@@H](N(Cc1cc(C(F)(F)F)cc(C(F)(F)F)c1)c1nnn(C)n1)CCCN2C[C@H]1CC[C@H](C(=O)O)CC1		human, dyslipidemic patients, plasma	oral, 100 mg daily, geometric mean, with: rosuvastatin		AUC(0-tau) at steady state	5960 ng·h/mL
C[C@]12CC[C@@H]3c4ccc(O)cc4CC[C@H]3[C@@H]1C[C@@H](O)[C@@H]2O	GC-MS	breast cancer women on NSAI, serum	vaginal, 0.03 mg daily, 0.5 h, day 28		minimum serum concentration	0 ng/mL
